Published values gathered from unrelated publications.
Compare with care: the assays were run in different laboratories. “And” joins repeats or separate records; there may be more than shown. ± marks the error that the study gave.
Gabrg2/Gabra1 α1+/γ2− interface: Gabrg2/Gabra1, α1+/γ2− interface (Rattus norvegicus, UniProt P18508+P62813)
Chain of UniProt P62813 (whole entry, looked up): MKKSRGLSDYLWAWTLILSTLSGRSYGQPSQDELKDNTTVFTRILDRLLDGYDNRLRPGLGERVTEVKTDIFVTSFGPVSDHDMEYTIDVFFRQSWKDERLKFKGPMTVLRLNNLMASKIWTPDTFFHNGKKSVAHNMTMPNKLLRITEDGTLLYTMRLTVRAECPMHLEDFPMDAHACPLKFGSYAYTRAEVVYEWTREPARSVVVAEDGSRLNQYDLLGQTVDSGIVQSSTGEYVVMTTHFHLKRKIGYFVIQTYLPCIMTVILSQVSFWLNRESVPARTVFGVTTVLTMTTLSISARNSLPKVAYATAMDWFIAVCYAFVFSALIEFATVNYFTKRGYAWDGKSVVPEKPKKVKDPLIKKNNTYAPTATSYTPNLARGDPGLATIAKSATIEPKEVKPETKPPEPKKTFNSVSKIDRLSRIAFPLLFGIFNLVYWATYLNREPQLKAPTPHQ
Chain of UniProt P18508 (whole entry, looked up): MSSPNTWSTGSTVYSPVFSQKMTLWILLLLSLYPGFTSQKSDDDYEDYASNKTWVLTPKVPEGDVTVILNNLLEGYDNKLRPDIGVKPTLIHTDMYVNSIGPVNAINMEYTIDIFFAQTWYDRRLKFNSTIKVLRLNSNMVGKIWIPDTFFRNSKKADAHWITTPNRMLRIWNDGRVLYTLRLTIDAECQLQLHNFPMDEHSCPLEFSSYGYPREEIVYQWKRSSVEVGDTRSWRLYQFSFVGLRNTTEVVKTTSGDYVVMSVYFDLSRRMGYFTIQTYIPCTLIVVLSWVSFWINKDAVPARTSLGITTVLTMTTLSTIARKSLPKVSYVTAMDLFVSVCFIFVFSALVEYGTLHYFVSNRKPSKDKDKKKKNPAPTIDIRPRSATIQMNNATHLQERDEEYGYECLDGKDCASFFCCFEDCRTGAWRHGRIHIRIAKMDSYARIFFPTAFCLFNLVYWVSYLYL
Glutamate receptor ionotropic, kainate 3: Glutamate receptor ionotropic, kainate 3 (Rattus norvegicus, UniProt P42264)
Chain of UniProt P42264 (whole entry, looked up): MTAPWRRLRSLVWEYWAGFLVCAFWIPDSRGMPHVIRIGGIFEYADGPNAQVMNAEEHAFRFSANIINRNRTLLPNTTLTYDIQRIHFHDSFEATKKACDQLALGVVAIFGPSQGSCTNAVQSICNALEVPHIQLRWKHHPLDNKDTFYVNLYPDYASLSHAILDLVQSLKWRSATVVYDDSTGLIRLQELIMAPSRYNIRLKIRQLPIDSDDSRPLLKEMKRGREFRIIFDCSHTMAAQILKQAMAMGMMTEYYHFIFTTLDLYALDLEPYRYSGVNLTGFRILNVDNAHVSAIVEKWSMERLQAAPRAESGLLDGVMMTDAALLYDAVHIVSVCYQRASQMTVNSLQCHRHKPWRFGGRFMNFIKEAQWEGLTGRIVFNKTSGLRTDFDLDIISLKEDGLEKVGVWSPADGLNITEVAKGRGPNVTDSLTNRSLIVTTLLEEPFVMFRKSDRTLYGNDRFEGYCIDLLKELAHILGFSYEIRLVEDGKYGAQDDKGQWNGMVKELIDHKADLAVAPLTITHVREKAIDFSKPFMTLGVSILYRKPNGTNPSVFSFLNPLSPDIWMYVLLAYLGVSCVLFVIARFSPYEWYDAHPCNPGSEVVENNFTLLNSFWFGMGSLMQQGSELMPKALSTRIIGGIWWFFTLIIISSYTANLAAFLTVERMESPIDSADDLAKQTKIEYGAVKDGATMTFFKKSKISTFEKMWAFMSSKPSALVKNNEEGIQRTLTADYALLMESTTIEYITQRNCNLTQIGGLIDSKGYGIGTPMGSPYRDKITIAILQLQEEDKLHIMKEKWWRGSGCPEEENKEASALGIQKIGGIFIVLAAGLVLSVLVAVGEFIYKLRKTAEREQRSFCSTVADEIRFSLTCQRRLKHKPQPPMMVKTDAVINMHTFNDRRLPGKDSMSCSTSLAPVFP
DNA polymerase III PolC V741I: DNA polymerase III PolC (Clostridioides difficile, UniProt Q18BG8, V741I)
Urea transporter 1: Urea transporter 1 (Homo sapiens, UniProt Q13336)
Chain of UniProt Q13336 (whole entry, looked up): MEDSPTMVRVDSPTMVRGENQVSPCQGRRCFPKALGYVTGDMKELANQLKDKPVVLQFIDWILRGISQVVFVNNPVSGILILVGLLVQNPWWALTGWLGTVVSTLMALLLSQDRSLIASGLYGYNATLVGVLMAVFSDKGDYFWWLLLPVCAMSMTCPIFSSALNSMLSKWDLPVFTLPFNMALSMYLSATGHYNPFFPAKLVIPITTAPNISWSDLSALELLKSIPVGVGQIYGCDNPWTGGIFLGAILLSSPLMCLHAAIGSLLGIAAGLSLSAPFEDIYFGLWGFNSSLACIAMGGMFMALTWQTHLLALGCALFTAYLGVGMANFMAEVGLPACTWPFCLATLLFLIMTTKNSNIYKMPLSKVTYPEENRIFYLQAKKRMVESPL
Vesicular acetylcholine transporter: Vesicular acetylcholine transporter (Rattus norvegicus, UniProt Q62666)
Chain of UniProt Q62666 (whole entry, looked up): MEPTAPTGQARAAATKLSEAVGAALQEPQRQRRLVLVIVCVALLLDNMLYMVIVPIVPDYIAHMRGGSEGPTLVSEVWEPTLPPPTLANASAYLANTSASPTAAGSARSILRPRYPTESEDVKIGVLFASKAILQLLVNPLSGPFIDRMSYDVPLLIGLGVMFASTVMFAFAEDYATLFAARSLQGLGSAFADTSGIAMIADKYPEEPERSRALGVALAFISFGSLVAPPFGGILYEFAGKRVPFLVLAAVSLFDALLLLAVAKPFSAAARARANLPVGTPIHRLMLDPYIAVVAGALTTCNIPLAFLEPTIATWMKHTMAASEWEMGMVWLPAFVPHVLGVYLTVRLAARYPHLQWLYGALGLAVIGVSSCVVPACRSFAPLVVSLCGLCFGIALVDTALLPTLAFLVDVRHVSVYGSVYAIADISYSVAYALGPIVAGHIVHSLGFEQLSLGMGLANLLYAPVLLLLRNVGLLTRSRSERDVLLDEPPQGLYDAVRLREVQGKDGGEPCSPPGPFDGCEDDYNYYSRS
Chain of UniProt Q9NWT6 (whole entry, unmodified, looked up): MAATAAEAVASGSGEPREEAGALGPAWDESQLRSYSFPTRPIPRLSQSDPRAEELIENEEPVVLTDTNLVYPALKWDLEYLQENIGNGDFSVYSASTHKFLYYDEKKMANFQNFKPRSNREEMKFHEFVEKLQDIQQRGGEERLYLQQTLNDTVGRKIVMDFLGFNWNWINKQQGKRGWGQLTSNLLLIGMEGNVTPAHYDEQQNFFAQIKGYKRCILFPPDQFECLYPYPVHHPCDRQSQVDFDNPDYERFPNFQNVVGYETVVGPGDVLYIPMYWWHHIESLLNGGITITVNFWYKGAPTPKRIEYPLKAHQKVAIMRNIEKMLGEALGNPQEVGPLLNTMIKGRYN
Chain of UniProt P35348 (whole entry, looked up): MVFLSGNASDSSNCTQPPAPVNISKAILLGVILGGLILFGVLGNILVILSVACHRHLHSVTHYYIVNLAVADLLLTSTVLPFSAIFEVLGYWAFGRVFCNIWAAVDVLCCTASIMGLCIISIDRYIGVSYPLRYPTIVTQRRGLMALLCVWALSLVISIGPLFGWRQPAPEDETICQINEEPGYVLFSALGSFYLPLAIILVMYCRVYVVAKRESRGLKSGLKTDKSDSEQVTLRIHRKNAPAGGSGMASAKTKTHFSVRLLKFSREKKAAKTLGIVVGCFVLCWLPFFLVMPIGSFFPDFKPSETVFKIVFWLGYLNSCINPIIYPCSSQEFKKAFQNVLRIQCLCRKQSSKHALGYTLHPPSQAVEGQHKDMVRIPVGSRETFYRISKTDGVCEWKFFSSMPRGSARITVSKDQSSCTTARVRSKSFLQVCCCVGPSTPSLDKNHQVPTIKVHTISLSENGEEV
Chain of UniProt P31424 (whole entry, looked up): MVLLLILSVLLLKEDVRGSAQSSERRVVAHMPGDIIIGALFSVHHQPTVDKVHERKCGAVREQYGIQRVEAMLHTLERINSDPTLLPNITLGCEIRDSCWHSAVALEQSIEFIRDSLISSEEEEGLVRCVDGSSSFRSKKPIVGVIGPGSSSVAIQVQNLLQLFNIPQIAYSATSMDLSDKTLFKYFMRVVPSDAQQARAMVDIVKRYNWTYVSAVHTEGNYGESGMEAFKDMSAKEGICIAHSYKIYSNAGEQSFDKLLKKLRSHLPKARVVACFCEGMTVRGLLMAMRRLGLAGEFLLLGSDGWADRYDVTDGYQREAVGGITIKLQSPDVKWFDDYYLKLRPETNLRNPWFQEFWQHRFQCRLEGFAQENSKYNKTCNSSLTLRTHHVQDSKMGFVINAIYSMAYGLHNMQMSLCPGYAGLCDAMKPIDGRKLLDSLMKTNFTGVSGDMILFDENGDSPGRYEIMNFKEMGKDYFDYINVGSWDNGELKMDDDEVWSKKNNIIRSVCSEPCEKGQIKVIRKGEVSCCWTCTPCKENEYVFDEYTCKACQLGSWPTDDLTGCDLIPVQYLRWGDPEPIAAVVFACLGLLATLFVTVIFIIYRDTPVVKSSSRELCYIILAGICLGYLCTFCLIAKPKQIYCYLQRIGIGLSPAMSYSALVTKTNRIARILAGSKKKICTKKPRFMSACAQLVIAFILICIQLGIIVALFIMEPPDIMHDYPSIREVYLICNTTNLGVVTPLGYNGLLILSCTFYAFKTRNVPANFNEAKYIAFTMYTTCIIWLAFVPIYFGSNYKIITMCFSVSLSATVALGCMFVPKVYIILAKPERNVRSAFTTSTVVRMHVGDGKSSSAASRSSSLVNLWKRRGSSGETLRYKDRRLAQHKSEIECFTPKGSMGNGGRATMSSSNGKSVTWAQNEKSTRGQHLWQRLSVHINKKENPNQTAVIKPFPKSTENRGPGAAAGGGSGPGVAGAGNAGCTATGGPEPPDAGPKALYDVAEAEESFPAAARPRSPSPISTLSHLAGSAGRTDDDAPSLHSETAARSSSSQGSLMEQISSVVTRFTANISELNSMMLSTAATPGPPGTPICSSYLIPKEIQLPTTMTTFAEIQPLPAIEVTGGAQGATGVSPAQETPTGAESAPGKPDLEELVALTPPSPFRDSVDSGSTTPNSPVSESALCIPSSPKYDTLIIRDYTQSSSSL

| SMILES | target | assay | system | conditions | Ki |
| --- | --- | --- | --- | --- | --- |
| COc1cc2c(cc1OC)-c1c(OC)c(OC)cc3c1[C@H](C2)N(C)CC3 (racemic) | Alpha-1A adrenergic receptor (ADRA1A, Homo sapiens, UniProt P35348) | binding |  | secondary | 1.32 µM |
| COc1cccc(-n2nc3c4cc(Cl)ccc4[nH]cc-3c2=O)c1 | Gabrg2/Gabra1 α1+/γ2− interface |  | rat cerebellar membranes | together with: [3H]flunitrazepam | 0.00017 ± 7e-06 µM |
| OCC1CCN(c2ccc(-c3cc4cc(O)ccc4[nH]3)c(F)n2)CC1 | Microtubule-associated protein tau, AD brain aggregates (MAPT, Homo sapiens, UniProt P10636) |  | Alzheimer's disease brain homogenate | together with: [3H]asyn-44 | > 10 µM |
| CN[C@H]1[C@H]2O[C@@](C[C@H](N)C(=O)O)(C(=O)O)C[C@H]2OC[C@H]1O | Glutamate receptor ionotropic, kainate 3 | ligand |  |  | 0.0054 µM |
| CC(C)[C@H](N)C(=O)OCCCCCn1cnc2nc(NCc3ccc(Cl)c(Cl)c3)[nH]c(=O)c21 | DNA polymerase III PolC V741I | enzyme activity, inhibitor |  | truncated, dGTP omitted, 4% DMSO | 1.57 µM |
| COCC1OC2CC(CC(N)C(=O)O)(C(=O)O)OC2C(O)C1O (stereo not shown) | Glutamate receptor ionotropic, kainate 3 | binding, [3H]kainate displacement | HEK293T/17 membranes | together with: [3H]kainate | 14.5 µM |
| C[C@@H](NC(=O)c1ccc(C#Cc2cccc(F)c2)cn1)C(C)(C)O | Metabotropic glutamate receptor 5, MPEP allosteric site (Grm5, Rattus norvegicus, UniProt P31424) | [3H]methoxy-PEPy displacement |  | MPEP allosteric site | 0.0118 ± 0.0001 µM |
| CCc1cc(Nc2cc(=O)n(CCCCO)c(=O)[nH]2)ccc1C | DNA polymerase III PolC V741I | enzyme activity, inhibitor |  | truncated, dGTP omitted, 4% DMSO | 0.37 µM |
| O=C(O)CCC(=O)C(=O)O | Hypoxia-inducible factor 1-alpha inhibitor (HIF1AN, Homo sapiens, UniProt Q9NWT6, Y93A) | cosubstrate |  | pH 7.00, 37.0 °C, mutant Y93A, together with: CTAD peptide 100 µM | 350 µM and ~300 µM |
| N#CCC(N)=O | Urea transporter 1 | urea transport inhibition |  | together with: thiourea | 2000 µM |
| N[C@@H](Cc1cc(I)c(O)c(I)c1)C(=O)O | Cytochrome P450 2E1 (CYP2E1, Homo sapiens, UniProt P05181) | p-nitrophenol hydroxylation, inhibitor | baculosomes | 10 min, with additive 100 µM | 4.9 µM |
| CC(C)C[C@H](NC(=O)CNC(=O)[C@H](C)NC(=O)c1ccc(S(=O)(=O)NC[C@H]2O[C@@H](C)[C@@H](O)[C@@H](O)[C@@H]2O)cc1)C(=O)N[C@@H](C)C(=O)N1CCN(c2cc3c(cc2F)c(=O)c(C(=O)O)cn3C2CC2)CC1 | fucose-binding lectin LecB (Pseudomonas aeruginosa, UniProt A0A0H2ZE85) | binding, competitive fluorescence polarization |  |  | 0.36 ± 0.12 µM |
| O=Cc1ccccc1 | uncharacterized protein (Bradysia odoriphaga, UniProt A0A2S0X9G4) | binding, competitive fluorescence displacement |  |  | > 50 µM |
| Cc1ccc2c(c1)C=CC21CCN(C2Cc3ccccc3CC2O)CC1 (racemic) | Vesicular acetylcholine transporter | binding, radioligand displacement | PC12 expressing VAChT | together with: [3H]vesamicol | 0.0087 ± 0.0001 µM |
| NC(CC1(C(=O)O)CC2OC(CO)C(O)C(O)C2O1)C(=O)O (stereo not shown) | Glutamate receptor ionotropic, kainate 3 | binding, [3H]kainate displacement | HEK293T/17 membranes | together with: [3H]kainate | > 10 µM |
| [O]=[V]([OH])([OH])[OH] | Uncharacterized protein (Trypanosoma brucei, UniProt Q38AT7) |  |  |  | 54 µM |
| COc1ccccc1-n1nc2c3cc(Cl)ccc3[nH]cc-2c1=O | Gabrg2/Gabra1 α1+/γ2− interface |  | rat cerebellar membranes | together with: [3H]flunitrazepam | 0.0078 ± 0.0006 µM |
| NC(=O)c1ccc[n+]([C@@H]2O[C@H](COP(=O)(O)OP(=O)(O)OC[C@H]3O[C@@H](n4cnc5c(N)ncnc54)[C@H](OP(=O)(O)O)[C@@H]3O)[C@@H](O)[C@H]2O)c1 | chnB (Rhodococcus sp. HI-31, UniProt C0STX7, L145D) |  |  |  | < 100 µM |
| CC[C@H]1OC(=O)[C@H](C)[C@@H](O[C@H]2C[C@@](C)(OC)[C@@H](O)[C@H](C)O2)[C@H](C)[C@@H](O[C@@H]2O[C@H](C)C[C@H](N(C)C)[C@H]2O)[C@](C)(O)C[C@@H](C)C(=O)[C@H](C)[C@@H](O)[C@]1(C)O | uncharacterized protein (Saccharopolyspora erythraea, UniProt A4F7P9) | inhibitor |  | pH 7.6, 20 °C, together with: p-nitrophenyl-β-D-glucopyranoside | 124 ± 130 µM |
| NC(=O)C(Cl)Cl | Urea transporter 1 | urea transport inhibition |  | together with: thiourea | 15000 µM |
| O[C@@H]1CCCC[C@H]1N1CCC(c2ccccc2)CC1 (racemic) | Vesicular acetylcholine transporter | binding, radioligand displacement | PC12 expressing VAChT | together with: [3H]-labelled compound | 0.028 ± 0.003 µM |
| O=C(NO)c1ccc(CN2CCN(c3cccc4cc(S(=O)(=O)c5cccc(F)c5)cnc34)CC2)c(F)c1 | 5-hydroxytryptamine receptor 6 (HTR6, Homo sapiens, UniProt P50406) | binding |  |  | 0.0007 µM |
| C=CC(N)=O | Urea transporter 1 | urea transport inhibition |  | together with: thiourea | 100000 µM |
| CCc1cc(Nc2cc(=O)[nH]c(=O)[nH]2)ccc1C | DNA polymerase III PolC V741I | enzyme activity, inhibitor |  | truncated, dGTP omitted, 4% DMSO | 1.5 µM |
| OC1Cc2ccccc2CC1N1CCC2(C=Cc3cc(F)ccc32)CC1 (racemic) | Vesicular acetylcholine transporter | radioligand binding | PC12 expressing VAChT | together with: [3H]vesamicol | 0.018 ± 0.006 µM |
| NC(=O)CF | Urea transporter 1 | urea transport inhibition |  | together with: thiourea | 15000 µM |
| Cn1cnc2c(=O)[nH]c(NCc3ccc(Cl)c(Cl)c3)nc21 | DNA polymerase III PolC V741I | enzyme activity, inhibitor |  | truncated, dGTP omitted, 4% DMSO | ~100 µM |
| OC1Cc2ccccc2CC1N1CCC2(CC1)C(Br)=Cc1ccccc12 (racemic) | Vesicular acetylcholine transporter | radioligand binding | PC12 expressing VAChT | together with: [3H]vesamicol | 0.025 ± 0.002 µM |
